Results from different studies.
Parts stem from different laboratories: compare values within a part only. Substitutions count along the parent as printed.

Series 1
Target: ABI1, truncated, D143A, DHFR fusion (Arabidopsis thaliana)
Technique: DHFR PCA, deep sequencing
Sample: yeast
Notes: methotrexate growth selection, single substitutions
With: (+)-ABA 710 µM
Baseline: wild-type fitted maximum
Reading: higher = stronger binding
Endpoint: relative binding score
Starting sequence: PYL1, truncated, DHFR fusion (Arabidopsis thaliana); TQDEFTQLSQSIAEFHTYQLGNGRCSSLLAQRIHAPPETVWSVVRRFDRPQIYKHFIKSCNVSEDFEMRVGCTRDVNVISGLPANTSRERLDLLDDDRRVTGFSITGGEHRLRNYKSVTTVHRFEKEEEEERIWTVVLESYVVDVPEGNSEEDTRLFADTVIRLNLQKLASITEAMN
L93D: 77.7%
Y53I: 73.7%
E127T: 108%
T154C: 94.9%
F56P: 21.6%
T1M: 96.9%
V142A: 97.5%
H122A: 66.8%
R99S: 88.2%
T120G: 49.1%
Y18A: 98.8%
N61K: 104%
S27I: -0.0214%
L93F: 99.6%
S26G: 97.4%
S104M: 78.2%
S42A: 102%
P146A: 97.9%
I133A: 112%
N85G: 104%
H110T: 83.8%
E139P: 1.78%
L28I: 97.3%
S150C: 95.2%
M176N: 101%

Series 2
Target: RING finger protein unkempt homolog, zinc fingers 1-6, GST-SBP tag (UNK, Homo sapiens, UniProt Q9C0B0, residues 30-357)
Technique: RNA Bind-n-Seq
Form: RNA
Sample: in vitro
Tested at: not given
Notes: RNA with constant flanks, human and mouse sites, ends assumed
Baseline: input RNA pool
Reading: higher = stronger binding
Endpoint: bound/input enrichment
Construct (chain): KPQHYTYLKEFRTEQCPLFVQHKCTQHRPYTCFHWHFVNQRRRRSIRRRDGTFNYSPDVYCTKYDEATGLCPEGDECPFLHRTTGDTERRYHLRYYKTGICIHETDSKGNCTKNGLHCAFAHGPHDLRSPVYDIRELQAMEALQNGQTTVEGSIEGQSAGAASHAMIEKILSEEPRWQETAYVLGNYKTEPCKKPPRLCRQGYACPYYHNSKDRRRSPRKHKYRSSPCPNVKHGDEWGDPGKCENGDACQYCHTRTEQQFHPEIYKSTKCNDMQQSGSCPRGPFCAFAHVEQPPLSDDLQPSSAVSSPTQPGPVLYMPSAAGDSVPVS
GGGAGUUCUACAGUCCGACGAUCGCAGGAGCAUCAGUAGACCUAACAAUUUUCUCCCUUCAUUUAGCUGGAGUGUCAUCUAUUUUAGGUGCAAUUAAUUUUAUUACCACUAUUAUCAACAUGAAACCCCCAGCCAUAACACAGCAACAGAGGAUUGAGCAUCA: 0.985 ratio
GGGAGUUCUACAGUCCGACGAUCCUCUAUUUCACUGGGAGUGAUAUUUUCAAUAAGAAUAUGAGGGCUCAUGCCCUAGAAAAGGGUUUCACAAUCAAUGAGUACACCAUCCGUCCCUUGGGAGUCACUGGAGUUGCAGGAGAACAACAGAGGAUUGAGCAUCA: 0.216 ratio
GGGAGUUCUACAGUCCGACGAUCUGGGUGGCAAAAUCCCUUGUUAAAGGAGGUCUGUGCCGGAGGGUUCUUGUUCAGGUCUCUUAUGCUAUUGGAGUUUCUCAUCCAUUAUCUAUCUCCAUUUUCCAUUAUGGUACCUCUCAGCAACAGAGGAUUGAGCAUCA: 0.237 ratio
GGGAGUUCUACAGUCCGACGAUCUGCCUCUGUCUUGUAUUUGUUUUGUUCUGUUUUCUCAUUGGGGGUAAAUGGUGCCUGGCACAUGGCAGGCACUCAAUAAAUAUUUGUUUGUGGAAUGUCUCCUUUCUCUUUCCACUCUGACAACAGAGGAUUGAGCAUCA: 0.323 ratio
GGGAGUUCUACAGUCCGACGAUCAGACCACGACUCCAGCUUAAACCUCGAACAGUCGCGACGCCCCUCAAUCAAGUAGCCAAUCCCAACUCUGCUAUCUUCGGGGGUGCCAGGCCUAGAGAGGAAGUCGUUCAAAAGGAGCAACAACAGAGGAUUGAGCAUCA: 0.0947 ratio
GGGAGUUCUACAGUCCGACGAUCCUGUCCGAACGAUCGGGAUAGGAGCGGUCCCUGCGCUUGCUGCUGGGAAGUGGUACAAUCAUGUUUGAAAUUAAGAAGAUCUGUUGCAUCGGUGCAGGCUAUGUUGGAGGACCCACAUGUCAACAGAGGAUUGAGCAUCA: 0.409 ratio
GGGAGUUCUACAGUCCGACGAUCUUAGAUCUCUGAGGCUCAGAAAAAGGAAAGGGUGUCUCAUCCCGCUUUCUCGCUUUUCGCUUUAGCCAUGGCGGAGACAGGGGCCGGGAUAAGUGAGACCGUCACUGAGACAACGGUUACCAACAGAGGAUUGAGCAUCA: 0.165 ratio
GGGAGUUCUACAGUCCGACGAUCCUGUCACACUCCAAGGGCCACCAGAAGCGCAAGGCCCUCAAGACGACAGUCAUCCUCAUCCUAGCUUUCUUUGCCUGCUGGCUGCCAUAUUAUGUGGGGAUCAGCAUCGACUCCUUCAUCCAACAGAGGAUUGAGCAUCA: 0.212 ratio
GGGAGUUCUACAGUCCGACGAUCACAUGUAAUUCACGUGGUAAAAUAAAAUAUAGCUAUUGUAAGUGUGCUUUUCAGUAGCAUUAUAUAUGUGUUAUACAGUGAUUAUUGCUGUCCCUCUCCAAAACUCUAUCUUUGAAAACUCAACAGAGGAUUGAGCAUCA: 0.0877 ratio
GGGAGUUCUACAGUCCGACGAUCUCUUGUAGAAGAUGGACUCUGAAAAACAUUCCAGGAAACCAUGGCAGCAUGGAGAGCCUCUUAGUGAUUGUGUCUGCAUUGUUAUUGUGGAAGAUUUACCUUUUCUGUUGUACGUAAAGCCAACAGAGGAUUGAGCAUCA: 0.515 ratio
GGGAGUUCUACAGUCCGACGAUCAUUGGUGGAGAGGCUUGUAUGUGGGGAGAAUAUGUGGACAACACAAACCUGGUCCCCAGGCUCUGGCCCAGAGCAGGGGCUGUUGCCGAAAGGCUGUGGAGCAACAAGUUGACAUCUGACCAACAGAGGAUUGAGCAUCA: 0.232 ratio

Series 3
Target: UBE2N UBC core domain (UniProt P61088)
Technique: yeast two-hybrid
Sample: yeast
Notes: mostly zero background
Baseline: not given
Reading: higher = stronger interaction
Endpoint: lacZ reporter activity
B1: PHF7 RING domain (UniProt Q9BWX1); chain IQHGHVGEESCILCCEDLSQQSVENIQSPCCSQAIYHRKCIQKYAHTSAKHFFKCPQCNNRKEFPQEML
B2: RNF150 RING domain (UniProt Q9ULK6); chain DKETESDFDNCAVCIEGYKPNDVVRILPCRHLFHKSCVDPWLLDHRTCPMCKMNILKALGIP
B3: TRIM55 RING domain (UniProt Q9BYV6); chain TMDNLEKQLICPICLEMFTKPVVILPCQHNLCRKCASDIFQASNPYLPTRGGTTMASGGRFRCPSCRHEVVLDRHG
B4: RNF175 RING domain (UniProt Q8N4F7); chain LPTRSLSDNICAVCGQKIIVELDEEGLIENTYQLSCNHVFHEFCIRGWCIVGKKQTCPYCKEKVDLKRMIS
B5: TRIM15 RING domain (UniProt Q9C019); chain SLKVVHELPACTLCAGPLEDAVTIPCGHTFCRLCLPALSQMGAQSSGKILLCPLCQEEEQAETPMA
B6: NSMCE1 RING domain (UniProt Q8WV22); chain RETYPDAVKICNICHSLLIQGQSCETCGIRMHLPCVAKYFQSNAEPRCPHCNDYWPHEIPKV
B7: TRIM10 RING domain (UniProt Q9UDY6); chain SVTSLADEVNCPICQGTLREPVTIDCGHNFCRACLTRYCEIPGPDLEESPTCPLCKEPFRPGSFRP
B8: RNF5 RING domain (UniProt Q99942); chain ERGGAGATFECNICLETAREAVVSVCGHLYCWPCLHQWLETRPERQECPVCKAGISREKVVP
B9: RNF43 RING domain (UniProt Q68DV7); chain SGSSCSSAPVCAICLEEFSEGQELRVISCLHEFHRNCVDPWLHQHRTCPLCMFNITEGDSFS
Construct (chain): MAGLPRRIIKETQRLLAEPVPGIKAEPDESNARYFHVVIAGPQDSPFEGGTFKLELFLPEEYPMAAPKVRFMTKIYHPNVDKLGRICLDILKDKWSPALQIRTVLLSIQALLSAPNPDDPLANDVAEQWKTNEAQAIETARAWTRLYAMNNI
B1 (PHF7 RING domain): 0
LKQVSIRENCCSLCCDEVADTQLKPCGHSDLCMDCALQLETCPLCRKEIVSRIRQI (RSPRY1 RING domain (UniProt Q96DX4)): 0
B2 (RNF150 RING domain): 0
FLKKLEQSFMCVCCQELVYQPVTTECFHNVCKDCLQRSFKAQVFSCPACRHDLGQNYIMI (UHRF2 RING domain (UniProt Q96PU4)): 0
B3 (TRIM55 RING domain): 0
B4 (RNF175 RING domain): 0
B5 (TRIM15 RING domain): 0
MANWVFCNRCFQPPHRTSCFSLTNCGHVYCDACLGKGKKNECLICKAPCRTVLLSK (RNF212 RING domain (UniProt Q495C1)): 0
B6 (NSMCE1 RING domain): 0
B7 (TRIM10 RING domain): 0
B8 (RNF5 RING domain): 0
B9 (RNF43 RING domain): 7490
KIKDLNEHIVCCLCAGYFVDATTITECLHTFCKSCIVKYLQTSKYCPMCNIKIHETQPLL (PCGF1 RING domain (UniProt Q9BSM1)): 0
ISNDSETLEECMVCSDMKRDTLFGPCGHIATCSLCSPRVKKCLICKEQVQSRTKIE (MIB1 RING domain (UniProt Q86YT6)): 0
SYEDKSNDFVCPICFDMIEEAYMTKCGHSFCYKCIHQSLEDNNRCPKCNYVVDNIDHLY (COP1 RING domain (UniProt Q8NHY2)): 0

Mixed results
RANBP9 (Homo sapiens, UniProt Q96S59)
cross-linked residues (GID8 (Homo sapiens, UniProt Q9NWU2); cross-linking MS; cell fractions; with: DSSO): K405 to K48
